Measurements pooled from the literature.
Each numbered part is a random draw from the data of one study; scales do not carry over between parts.

Sample 1
Target: Centromere-binding protein 1, full length, N-terminal tag (CBF1, Saccharomyces cerevisiae, UniProt P17106, residues 1-351)
Chain of UniProt P17106 (whole entry, looked up): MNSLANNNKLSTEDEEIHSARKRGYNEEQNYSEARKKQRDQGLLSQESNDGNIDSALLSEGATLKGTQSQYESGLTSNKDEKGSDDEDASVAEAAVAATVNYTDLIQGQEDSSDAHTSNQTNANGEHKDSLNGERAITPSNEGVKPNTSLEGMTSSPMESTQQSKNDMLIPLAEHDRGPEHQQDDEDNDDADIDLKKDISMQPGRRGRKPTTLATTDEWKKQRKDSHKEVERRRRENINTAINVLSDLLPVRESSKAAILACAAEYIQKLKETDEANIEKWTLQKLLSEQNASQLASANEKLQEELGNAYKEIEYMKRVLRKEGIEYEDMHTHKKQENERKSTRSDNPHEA
Method: protein-binding microarray
Molecule type: double-stranded DNA, one strand shown
Matrix: in vitro
Tested at: 0.8 µM
Setting: whole 60-bp probe, no competitor
Direction: higher = stronger binding
All sequences stand within: … GTCTTGATTCGCTTGACGCTGCTG
With `CTACAAAAGAAAAACACCGTGCTGTGTGACCATTTC` the fluorescence intensity was 622 a.u.
`CTATCGCCCCAGTTACACGTGGGGACAATGGCGTTC` has a fluorescence intensity of 2210 a.u.
`CTAAGATATTGAGGTGTCATCAGATAGGACAATTTC` gave a fluorescence intensity of 567 a.u.
The fluorescence intensity of `GAATTATCCAACTATGGTGACGTAAGAATTTACTAG` is reported as 565 a.u.
`GAAAAAGTTGAGCACCACGATTACGGAATAACATAG` gave a fluorescence intensity of 514 a.u.
`CTAATTTGTCACAGTCACGTGATTACATTTAAGTTC` has a fluorescence intensity of 39800 a.u.
The fluorescence intensity of `CCTAACTACTATATGCATGTTGGATAGCTTCGTACA` is reported as 531 a.u.
The fluorescence intensity of `CTAATTTGTTCCGATCAGTTGAAGGTCATCAACTTC` is reported as 541 a.u.

Sample 2
Target: Ras GTPase-activating protein-binding protein 1, full length (G3BP1, Homo sapiens, UniProt Q13283)
Chain of UniProt Q13283 (whole entry, looked up): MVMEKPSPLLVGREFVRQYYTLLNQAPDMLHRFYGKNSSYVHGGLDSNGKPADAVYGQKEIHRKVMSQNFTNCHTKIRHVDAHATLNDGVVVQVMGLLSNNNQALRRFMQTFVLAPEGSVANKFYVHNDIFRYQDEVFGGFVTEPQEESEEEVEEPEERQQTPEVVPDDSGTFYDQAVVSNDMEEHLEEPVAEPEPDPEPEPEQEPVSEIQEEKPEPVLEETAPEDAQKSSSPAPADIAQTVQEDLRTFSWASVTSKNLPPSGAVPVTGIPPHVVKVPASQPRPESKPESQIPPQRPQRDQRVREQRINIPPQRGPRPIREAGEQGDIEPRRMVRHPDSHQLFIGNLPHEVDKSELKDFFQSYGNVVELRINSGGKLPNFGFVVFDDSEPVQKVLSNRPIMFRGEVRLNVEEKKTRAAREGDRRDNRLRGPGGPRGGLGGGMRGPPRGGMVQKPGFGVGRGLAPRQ
Method: RNA Bind-n-Seq
Molecule type: RNA
Matrix: in vitro
Tested at: 200 nM
Setting: whole 134-nt RNA, ends assumed
Added: 150 mM LiCl
Baseline: input library
Direction: higher = stronger binding
Library: 7-deaza-guanosine replaces G
All sequences stand within: GGGAGUUCUACAGUCCGACGAUC … UGGAAUUCUCGGGUGUCAAGG
`CUGUGCUACACAUCGUAUGUACCGAAUCAAACCCCCCCAAAUUUUUUUAAAUUUUUUUAAAAAAGUAUUAUGUUACGCCGUUCGGAUCUG` has a log2 enrichment of 1.1.
With `CUGUGCUACACAUCGUAUGUACCGAAUCGGGGCCCCCCGGGGCCCCCCGGGGCCCCCCGGGAAAGUAUUAUGUUACGCCGUUCGGAUCUG` the log2 enrichment was -1.35.
`AAGUCCUGUGCUACACAUCGUAUGUACCGAAUCGGGGUGGGGAAAGGGGUUUGGGGAAAGUAUUAUGUUACGCCGUUCGGAUCUGCACUU` gave a log2 enrichment of -1.15.
The log2 enrichment of `ACCAUGCAGGUGGGCAUCUUUGGGAAGUGGGGCAAGGGGGGGAUAGGGAGGGGGGUAACACUUUGGGAACAGGUGGUCCCAGGUCGUUUU` is reported as 0.177.
For `CAAGUCCUGUGCUACACAUCGUAUGUACCGAAUCGGGAAAGGGGAAAGGGAAAGGGAAAGUAUUAUGUUACGCCGUUCGGAUCUGCACUU`, the log2 enrichment was -0.332.
The log2 enrichment of `CAAGUCCUGUGCUACACAUCGUAUGUACCGAAUCGGGUUUUUUUGGGUGGGAGGGAAAGUAUUAUGUUACGCCGUUCGGAUCUGCACUUC` is reported as 0.321.
For `UGGCCCUGGUGGCAUGCGGGGAGGAAGAGGUGGCCUCAUGGAUCGUGGUGGUCCCGGUGGAAUGUUUAGAGGUGGCCGUGGUGGAGACAG`, the log2 enrichment was 0.205.
With `CUGUGCUACACAUCGUAUGUACCGAAUCGGAAAAAAAGGGGAAAAAAAGGGAAAAAAAGGGAAAGUAUUAUGUUACGCCGUUCGGAUCUG` the log2 enrichment was -0.312.

Other studies, line by line
With `PhoQ, residues 284 288 289 292 302 303 GTAMQF` the fold induction was 0.461 (PhoP, residues 12 14 15 18 19 TQCLL (Escherichia coli, UniProt P23836); Sort-seq, measured: YFP reporter; E. coli; PhoQ-PhoP variant library, added: 10 µM Mg2+; baseline: high Mg2+ state, higher = stronger signaling).
Under cross-linked residues, `PTBP1 (Homo sapiens, UniProt P26599)` is recorded as “K454 to K391” (MATR3 (Homo sapiens, UniProt P43243); cross-linking MS; cell fractions; added: DSSO).

Excerpt of the above (sample 2):
With `CUGUGCUACACAUCGUAUGUACCGAAUCGGGGCCCCCCGGGGCCCCCCGGGGCCCCCCGGGAAAGUAUUAUGUUACGCCGUUCGGAUCUG` the log2 enrichment was -1.35.
`AAGUCCUGUGCUACACAUCGUAUGUACCGAAUCGGGGUGGGGAAAGGGGUUUGGGGAAAGUAUUAUGUUACGCCGUUCGGAUCUGCACUU` gave a log2 enrichment of -1.15.
The log2 enrichment of `ACCAUGCAGGUGGGCAUCUUUGGGAAGUGGGGCAAGGGGGGGAUAGGGAGGGGGGUAACACUUUGGGAACAGGUGGUCCCAGGUCGUUUU` is reported as 0.177.
